Experimental data of several laboratories.
Parts stem from different laboratories: compare values within a part only.

Set 1
Target: Replicase polyprotein 1ab, main protease (rep, Severe acute respiratory syndrome coronavirus 2, UniProt P0DTD1)
Observed: enzyme activity
Mode: inhibitor
Concentration: 20 µM
Notes: hit confirmation, with DTT
| Compound | inhibition |
| --- | --- |
| CC1=C(/C=C/C(C)=C/C=C/C(C)=C/C(=O)O)C(C)(C)CCC1 | 5% |
| CN(C)CCNc1nc2cc(O)ccc2c2c1C(=O)c1ccccc1-2 | 42.2% |
| C[C@H](NC(=O)/C(C#N)=C/c1cccc(Br)n1)c1ccccc1 | 14.5% |
| c1cnc(SCc2cccnc2)nc1 | -6.8% |

Set 2
Target: Replicase polyprotein 1ab, polymerase (rep, Severe acute respiratory syndrome coronavirus 2, UniProt P0DTD1)
Observed: enzyme activity
Mode: inhibitor
Concentration: 20 µM
| SMILES | inhibition [%] |
| --- | --- |
| NCCCCN | 30.5 |
| C=C(c1ccccc1OCc1cccc(Cl)c1)n1ccnc1 | -2.78 |
| CCC(C)(Oc1ccc(C2(c3ccc(OC(C)(CC)C(=O)O)cc3)CCCCC2)cc1)C(=O)O (stereo not shown) | -7.01 |
| CC(C)(C)S(=O)(=O)N[C@H]1CC[C@H](C(=O)Nc2ccc(C(F)(F)F)cn2)CC1 | -1.1 |
| Cn1ccc2cc3c(cc21)CCN3C(=O)Nc1cccnc1 | -2.62 |
| CCOc1ccccc1OCCN[C@H](C)Cc1ccc(OC)c(S(N)(=O)=O)c1 | -1.9 |
| Clc1ccc2c(c1)N=C(N1CCNCC1)c1ccccc1N2 | 1.61 |
| COc1cccc(C(=O)CCN[C@@H](C)[C@H](O)c2ccccc2)c1 | 1.08 |
| C[C@@H]([C@@H](O)c1ccc(O)cc1)N1CCC(O)(c2ccccc2)CC1 | 2.56 |
| CC(=O)c1ccc2c(c1)N(CCCN1CCN(CCO)CC1)c1ccccc1S2 | -3.36 |
| CC(C)S(=O)(=O)NC[C@H](C)c1ccc(-c2ccc(CCNS(C)(=O)=O)cc2)cc1 | -0.75 |
| Cc1cc(C)c(NC(=O)C2CC3CCC2C3)c(C)c1 (stereo not shown) | -1.68 |
| CCNC(=O)NS(=O)(=O)c1sc(CC(C)C)cc1-c1ccc(Cn2c(-c3ccccc3)nc(OC)c2C=O)cc1 | 2.92 |
| CN1[C@@H]2CCC[C@H]1C[C@@H](NC(=O)c1nn(C)c3ccccc13)C2 | 3.89 |
| CC1(CN)Cc2ccccc2C1 | 0.66 |
| CC(C)C[C@H](NC(=O)[C@@H](Cc1c[nH]c2ccccc12)NC(=O)[C@H](Cc1ccc(O)cc1)NC(=O)[C@H](CO)NC(=O)[C@H](Cc1c[nH]c2ccccc12)NC(=O)[C@H](Cc1cnc[nH]1)NC(=O)[C@@H]1CCC(=O)N1)C(=O)N[C@@H](CCCN=C(N)N)C(=O)N1CCC[C@H]1C(=O)NCC(N)=O | 3.9 |
| Cc1cc(O)cc2c1O[C@](C)(CCC[C@H](C)CCC[C@H](C)CCCC(C)C)CC2 | 1.06 |
| Cc1[nH]c2ccc(Cl)cc2c1C1=CCNCC1 | -1.31 |
| COc1ccc(CN2CCNCC2)c(OC)c1OC | 5.17 |
| CC[C@H]1OC(=O)[C@H](C)[C@@H](O[C@H]2C[C@@](C)(OC)[C@@H](O)[C@H](C)O2)[C@H](C)[C@@H](O[C@@H]2O[C@H](C)C[C@H](N(C)C)[C@H]2O)[C@](C)(OC)C[C@@H](C)C(=O)[C@H](C)[C@@H](O)[C@]1(C)O | -21.7 |
| CO[C@H]1/C=C/O[C@@]2(C)Oc3c(C)c(O)c4c(O)c(c(/C=N/N5CCN(C6CCCC6)CC5)c(O)c4c3C2=O)NC(=O)/C(C)=C\C=C\[C@H](C)[C@H](O)[C@@H](C)[C@@H](O)[C@@H](C)[C@H](OC(C)=O)[C@@H]1C | 16 |
| COc1cc(-n2cnc3cc(-c4ccc(Cl)cc4)sc3c2=O)ccc1OCCN1CCCC1 | -4.36 |
| CC(C)Oc1cccc(-n2c(CCc3c[nH]c4ccc(Br)cc34)nc3ccccc3c2=O)c1 | -1.35 |
| COc1ccc2nc3n[nH]c(C)c3c(NCCOCCO)c2c1 | 7.61 |

Set 3
Target: Histone acetyltransferase KAT6A, winged helix 1, GST fusion (KAT6A, Homo sapiens, UniProt Q92794, residues 1-85)
Method: protein binding microarray
Molecule type: double-stranded DNA, one strand shown
Sample: in vitro
Concentration: not given
Notes: 8-mer, flanks averaged, mean of 2 arrays, mostly near background
Baseline: not given
Reading: higher = stronger binding
Construct (chain): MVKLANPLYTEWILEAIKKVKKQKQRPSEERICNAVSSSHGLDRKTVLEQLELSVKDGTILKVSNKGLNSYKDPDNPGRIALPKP
| Sequence | E-score |
| --- | --- |
| CTGGCAAC | -0.163 |
| ACCTAGAC | -0.0771 |
| TCCCCCAA | -0.259 |
| CGAAACTA | 0.0128 |
| AGCAAGTG | -0.265 |
| AGTGCGCG | 0.397 |
| CGATACCC | 0.179 |
| AACCAAAC | -0.00436 |

Set 4
Target: RNA binding protein fox-1 homolog 2, RRM domain, GST-SBP tag (RBFOX2, Homo sapiens, UniProt O43251-10, residues 100-194)
Method: RNA Bind-n-Seq
Molecule type: RNA
Sample: in vitro
Concentration: 365 nM
Notes: natural RNA segment, single round, ends assumed
Baseline: no-protein control
Reading: higher = stronger binding
All sequences stand within: GGGAGUUCUACAGUCCGACGAUC … UGGAAUUCUCGGGUGCCAA
Target sequence (chain): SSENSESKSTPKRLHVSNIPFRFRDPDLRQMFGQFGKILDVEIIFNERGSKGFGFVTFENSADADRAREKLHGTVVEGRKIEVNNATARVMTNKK
| Sequence | RBNS enrichment (R) |
| --- | --- |
| UAAAUUCUUAUUGGCCAAAUGCCUGUUUUGAUGAGUUGAUUUAUAAAGAUUUUUGUUAAGCUCAGGAUUUUAAAUUACACAGUUCACAAACAGUAAAGGCCAUGUGAAGA | 0.475 |
| CUGUGUUUGCUCCCAAAUCUGCUGAUGGUGGCUCAUUUCUAUCCUGUUUUCCCUUUGGUCCCAGGCCCUGGGGGAAAGGAAGGAAGUGCAUGCUUGGGGACUGGUCCCAC | 2.2 |
| CUCCCUCUAUGUCUAUGGUGUCCCCUGGGUUACACAGCUAAACGUGAGGGACCAUCUACCCCCCACCUAUCCUCGAGCACCAGGCUUGUGAGAUGAGACAGAGGGUGGAG | 0.293 |
| AUUAGCUGUUGACCAUUUGAUGCUGUUGUCUGUCUGGCAGGGACUGAAUGACCUGAUGUCAGAUUUAGAUUCUUCCUGGGGAUUACACAGCUAUGAAUGUAUUUGCUUCU | 0.741 |
| UCUGCUUUUCUUGGCGUUGGGUAGAAGCAGGACAUCUGUGUGUAUGUGCGUAUUUAAAUUAGAUUAUUUAUAAUAACCAGAGCCAGCCCUCGCGCUGGCCAGGAUCCUCC | 0.526 |
| UGUGUAUUCACGCAGUUACUCGCUUCCAUUUUUAUGACCUUUCAACUAUAGGUAAUAACUCUUAGAGAAAUUAAUUUAAUAUUAGAAUUUCUAUUAUGAAUCAUGUGAAA | 0.574 |
| UAGGGUUUAGAUUAUUUGACAGAAGUGCCUCUUAUGCAGACUGCUUCCCUUUGGGUAGCUGUGAUCUGCAGUAAGUCUGGGGAGAACCUGAGUACACCACUACACGUUGG | 0.161 |
| GUUACAUAGCAUUCAUAUAGGAAUGAGCAGAGACAUCUGAGAAGAGUGGGAGCUCAUGGGUGACAGUAAAACUUAGGUGUCUCAGAACUUAACAUUUAGUAAAGUGAUGU | 0.455 |

Set 5
Target: Sal-like protein 4, full length isoform B (SALL4, Homo sapiens, UniProt Q9UJQ4-2, residues 1-616)
Method: universal PBM
Molecule type: double-stranded DNA, one strand shown
Sample: in vitro
Concentration: not given
Notes: 8-mer, flanks averaged, mean of replicates
Reading: higher = stronger binding
Target sequence (chain): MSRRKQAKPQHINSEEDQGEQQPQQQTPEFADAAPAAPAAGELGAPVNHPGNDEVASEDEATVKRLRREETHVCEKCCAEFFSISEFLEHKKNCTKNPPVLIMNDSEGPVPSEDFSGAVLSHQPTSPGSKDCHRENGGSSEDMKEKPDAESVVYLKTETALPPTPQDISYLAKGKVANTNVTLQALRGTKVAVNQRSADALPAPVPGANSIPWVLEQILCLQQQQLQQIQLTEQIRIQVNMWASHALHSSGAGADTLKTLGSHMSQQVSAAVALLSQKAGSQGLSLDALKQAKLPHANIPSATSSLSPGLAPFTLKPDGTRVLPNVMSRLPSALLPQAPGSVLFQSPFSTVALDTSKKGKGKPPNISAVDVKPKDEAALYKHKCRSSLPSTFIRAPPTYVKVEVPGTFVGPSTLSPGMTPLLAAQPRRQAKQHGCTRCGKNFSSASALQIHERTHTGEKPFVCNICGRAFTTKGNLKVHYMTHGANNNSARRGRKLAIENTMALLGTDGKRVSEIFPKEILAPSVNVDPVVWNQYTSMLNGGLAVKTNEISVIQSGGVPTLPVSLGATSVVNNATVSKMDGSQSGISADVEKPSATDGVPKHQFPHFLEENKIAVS
| Sequence | E-score |
| --- | --- |
| CAACGATC | -0.0209 |
| AGACGCCG | -0.228 |
| CTAGAGCA | -0.17 |
| CTTCCCCC | -0.00859 |
| CTGTCCGC | -0.286 |
| AAGCCCCC | -0.352 |
| CAAATGCC | -0.172 |
| CTTTATTA | 0.404 |

Repeated from above (set 5):
| Sequence | E-score |
| --- | --- |
| CTAGAGCA | -0.17 |
| CTTCCCCC | -0.00859 |
| CTGTCCGC | -0.286 |
| AAGCCCCC | -0.352 |
